Measurements collected from several papers.
Compare with care: the assays were run in different laboratories. ± gives the spread as reported.
UniProt P21729, sequence (whole entry, looked up): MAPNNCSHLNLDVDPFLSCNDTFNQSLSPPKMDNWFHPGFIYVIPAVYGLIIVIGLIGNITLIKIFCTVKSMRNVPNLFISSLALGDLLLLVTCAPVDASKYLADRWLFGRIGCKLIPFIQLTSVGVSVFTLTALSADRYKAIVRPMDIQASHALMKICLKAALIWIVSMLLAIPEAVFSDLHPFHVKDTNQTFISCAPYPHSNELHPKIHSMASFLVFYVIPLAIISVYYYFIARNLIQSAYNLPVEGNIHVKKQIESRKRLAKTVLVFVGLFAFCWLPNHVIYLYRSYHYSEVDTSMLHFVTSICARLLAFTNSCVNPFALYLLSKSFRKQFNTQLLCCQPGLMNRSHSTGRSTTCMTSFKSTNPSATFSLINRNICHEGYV

SMILES | tested on | assay | system | conditions | quantity | value
CCCC[C@H](NC(=O)CCCCCCCNC(=O)c1ccc(NN)nc1)C(=O)N[C@H]1CC(=O)NCCCC[C@@H](C(N)=O)NC(=O)[C@H](Cc2c[nH]c3ccccc23)NC(=O)[C@H](CCCNC(=N)N)NC(=O)[C@@H](Cc2ccccc2)NC(=O)[C@H](Cc2c[nH]cn2)NC1=O [technetium-99m labelled] | – | – | C57 mouse, B16/F1 melanoma, tumor | 2 h, together with: NDP-MSH 10 µg (6.07 nmol) co-injected | tissue uptake | 1.26 ± 0.59 %ID/g
Cc1ccc(-c2ccccn2)cc1C(=O)NCCCCCCCCNC(=O)CNC(=O)CNC(=O)[C@H](CCCCN)NC(=O)[C@H](CCCCN)NC(=O)[C@@H](N)CCCCN | Jurkat | – | – | 25 µM, 1 h, 37 °C | cellular uptake of iridium | 0.97 ± 0.18 fmol/cell
CSCC[C@H](NC(=O)[C@H](CC(C)C)NC(=O)[C@H](Cc1c[nH]cn1)NC(=O)CNC(=O)[C@@H](NC(=O)[C@H](C)NC(=O)[C@H](Cc1c[nH]c2ccccc12)NC(=O)[C@H](CCC(N)=O)NC(=O)CCCCCNC(=O)CNC(=O)CNC(=O)CNC(=O)CSC(C)=O)C(C)C)C(N)=O [technetium-99m labelled] | – | – | healthy Swiss mouse, stomach, contents removed | intravenous, 18.5 MBq, 240 min | tissue uptake | 0.67 ± 0.05 %ID/g
CC(=O)N[C@@H](CCCCN)C(=O)N[C@@H](CS)C(=O)N[C@@H](CS)C(=O)N[C@@H](Cc1ccc(O)cc1)C(=O)N[C@@H](CO)C(=O)N[C@@H](CC(C)C)C(=O)NCC(=O)NCC(=O)NCC(=O)N[C@@H](CO)C(=O)N[C@@H](CO)C(=O)N[C@@H](CCCCN)C(=O)N[C@@H](Cc1ccc(O)cc1)C(=O)N[C@@H](CCC(N)=O)C(=O)N[C@@H](CO)C(=O)N[C@@H](CC(C)C)C(=O)OCCN(c1ccccc1)C(C)c1cc(C)cn2c(=O)cc(N3CCOCC3)nc12 (some centres unmarked) | LNCaP | LC-MS/MS | – | – | time to uptake equilibrium | < 10 min
N=C(N)NCCC[C@@H]1NC(=O)[C@H](CCCCNC(=O)CC[C@H](NC(=O)CCOCCOCCOCCOCCNC(=O)CC[C@H](NC(=O)CN2CCN(CC(=O)O)CCN(CC(=O)O)CCN(CC(=O)O)CC2)C(=O)NCCOCCOCCOCCOCCC(=O)N[C@@H](CCC(=O)NCCCC[C@@H]2NC(=O)[C@@H](Cc3ccccc3)NC(=O)[C@H](CC(=O)O)NC(=O)CNC(=O)[C@H](CCCNC(=N)N)NC2=O)C(=O)NCCCC[C@@H]2NC(=O)[C@@H](Cc3ccccc3)NC(=O)[C@H](CC(=O)O)NC(=O)CNC(=O)[C@H](CCCNC(=N)N)NC2=O)C(=O)NCCCC[C@@H]2NC(=O)[C@@H](Cc3ccccc3)NC(=O)[C@H](CC(=O)O)NC(=O)CNC(=O)[C@H](CCCNC(=N)N)NC2=O)NC(=O)[C@@H](Cc2ccccc2)NC(=O)[C@H](CC(=O)O)NC(=O)CNC1=O [indium-111 labelled] | – | – | female athymic nude mice, kidney | intravenous, 3 µCi, 1 h, U-87 MG glioma xenograft | tissue uptake | 6.67 ± 1.01 %ID/g
CCCC[C@H](NC(=O)CNC(=O)CNC(=O)c1ccc(NN)nc1)C(=O)N[C@H]1CC(=O)NCCCC[C@@H](C(N)=O)NC(=O)[C@H](Cc2c[nH]c3ccccc23)NC(=O)[C@H](CCCNC(=N)N)NC(=O)[C@@H](Cc2ccccc2)NC(=O)[C@H](Cc2c[nH]cn2)NC1=O [technetium-99m labelled] | – | – | C57 mouse, B16/F1 melanoma-bearing, stomach | intravenous, 0.5 h | tissue uptake | 2.23 ± 0.52 %ID/g
CCCNC(=O)[C@H](CC(C)C)NC(=O)[C@H](Cc1c[nH]cn1)NC(=O)CNC(=O)[C@@H](NC(=O)[C@H](C)NC(=O)[C@H](Cc1c[nH]c2ccccc12)NC(=O)[C@H](CCC(N)=O)NC(=O)[C@@H](Cc1ccccc1)NC(=O)CCCCCNC(=O)CN1CCN(CC(=O)O)CCN(CC(=O)O)CCN(CC(=O)O)CC1)C(C)C [indium-111 labelled] | Gastrin-releasing peptide receptor (Mus musculus, UniProt P21729) | biodistribution, ligand | CF-1 mouse, small intestine | intravenous, 1 h | tissue uptake | 0.9 ± 0.28 %ID/g
N=C(N)NCCC[C@@H]1NC(=O)[C@H](CCCCNC(=O)CNC(=O)CNC(=O)CNC(=O)CC[C@H](NC(=O)CCOCCOCCOCCOCCNC(=O)CC[C@H](NC(=O)CN2CCN(CC(=O)O)CCN(CC(=O)O)CCN(CC(=O)O)CC2)C(=O)NCCOCCOCCOCCOCCC(=O)N[C@@H](CCC(=O)NCC(=O)NCC(=O)NCC(=O)NCCCC[C@@H]2NC(=O)[C@@H](Cc3ccccc3)NC(=O)[C@H](CC(=O)O)NC(=O)CNC(=O)[C@H](CCCNC(=N)N)NC2=O)C(=O)NCC(=O)NCC(=O)NCC(=O)NCCCC[C@@H]2NC(=O)[C@@H](Cc3ccccc3)NC(=O)[C@H](CC(=O)O)NC(=O)CNC(=O)[C@H](CCCNC(=N)N)NC2=O)C(=O)NCC(=O)NCC(=O)NCC(=O)NCCCC[C@@H]2NC(=O)[C@@H](Cc3ccccc3)NC(=O)[C@H](CC(=O)O)NC(=O)CNC(=O)[C@H](CCCNC(=N)N)NC2=O)NC(=O)[C@@H](Cc2ccccc2)NC(=O)[C@H](CC(=O)O)NC(=O)CNC1=O [indium-111 labelled] | – | – | athymic nude mice, female, U-87 MG glioma xenograft, bone | intravenous, 3 µCi, 4 h | tissue uptake | 1.24 ± 0.16 %ID/g

Excerpt of the above:
SMILES | tested on | assay | system | conditions | quantity | value
CCCC[C@H](NC(=O)CCCCCCCNC(=O)c1ccc(NN)nc1)C(=O)N[C@H]1CC(=O)NCCCC[C@@H](C(N)=O)NC(=O)[C@H](Cc2c[nH]c3ccccc23)NC(=O)[C@H](CCCNC(=N)N)NC(=O)[C@@H](Cc2ccccc2)NC(=O)[C@H](Cc2c[nH]cn2)NC1=O [technetium-99m labelled] | – | – | C57 mouse, B16/F1 melanoma, tumor | 2 h, together with: NDP-MSH 10 µg (6.07 nmol) co-injected | tissue uptake | 1.26 ± 0.59 %ID/g
